Assay results of several laboratories.
Numbered parts are unrelated; each lists some results of a single study. Positions count from the first letter of the parent shown.

Study 1
Target: Histone acetyltransferase KAT6A, winged helix 2, GST fusion (KAT6A, Homo sapiens, UniProt Q92794, residues 85-181)
Method: protein binding microarray
Molecule type: double-stranded DNA, one strand shown
Matrix: in vitro
Tested at: not given
Setting: 8-mer, flanks averaged, mean of 2 arrays, mostly near background
Relative to: not given
Direction: higher = stronger binding
Target sequence (chain): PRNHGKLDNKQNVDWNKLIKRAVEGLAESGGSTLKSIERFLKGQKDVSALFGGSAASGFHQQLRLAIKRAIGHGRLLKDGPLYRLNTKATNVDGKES
For `CAAGTAAC`, the E-score was -0.151.
For `TAAACATA`, the E-score was -0.0196.
With `CTATCGAC` the E-score was -0.135.
`ACAAATAT` has an E-score of -0.00451.
`CTGGCAAC` gave an E-score of 0.0119.
For `AAAATAAA`, the E-score was 0.049.
For `AATGCTGG`, the E-score was -0.00177.
For `GACAAAAC`, the E-score was -0.000825.
`CTAACCGC` has an E-score of 0.0374.
`AGAGGTAC` has an E-score of -0.133.
The E-score of `ACCAAGTC` is reported as -0.0504.
With `AGGAGCCT` the E-score was -0.0686.
`GGCGGCAA` has an E-score of 0.211.
With `CGATGCCG` the E-score was 0.0999.
For `AACATCCT`, the E-score was -0.1.
With `ACGGCGAG` the E-score was 0.176.
The E-score of `CAATCAAA` is reported as 0.0603.
The E-score of `ACACGACA` is reported as -0.0801.
With `GCCCAGGA` the E-score was 0.0641.
`ACAGCGTA` gave an E-score of 0.0738.
For `CGCAGAAG`, the E-score was 0.203.

Study 2
Target: UBE2J2 UBC core domain (UniProt Q8N2K1)
Method: yeast two-hybrid
Matrix: yeast
Setting: mostly zero background
Relative to: not given
Direction: higher = stronger interaction
B1: RNF10 RING domain (UniProt Q8N5U6); chain VRICSHEVPSCPICLYPPTAAKITRCGHIFCWACILHYLSLSEKTWSKCPICYSSVHKKDLKS
B2: TRIM2 RING domain (UniProt Q9C040); chain VRQIDKQFLICSICLERYKNPKVLPCLHTFCERCLQNYIPAHSLTLSCPVCRQTSILPEKGV
B3: ARIH1 RING domain (UniProt Q9Y4X5); chain NTRSSAQDMPCQICYLNYPNSYFTGLECGHKFCMQCWSEYLTTKIMEEGMGQTISCPAHGCDILVDDNTVM
B4: SHPRH RING domain (UniProt Q149N8); chain KTSGGVNPEPCPICARQLGKQWAVLTCGHCFCNECISIIIEQYSVGSHRSSIKCAICRQTTSHKEISY
B5: UBE4B RING domain (UniProt O95155); chain KNARAEIDYSDAPDEFRDPLMDTLMTDPVRLPSGTIMDRSIILRHLLNSPTDPFNRQTLTESMLEPVPELKEQIQAWMREKQNSDH
Construct (chain): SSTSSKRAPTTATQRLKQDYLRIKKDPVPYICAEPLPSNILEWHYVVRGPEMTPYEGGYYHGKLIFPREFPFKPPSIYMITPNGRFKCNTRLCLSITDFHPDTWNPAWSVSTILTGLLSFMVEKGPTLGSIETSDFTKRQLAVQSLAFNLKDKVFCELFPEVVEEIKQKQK
For `B1 (RNF10 RING domain)`, “lacZ reporter activity” read 0.
`B2 (TRIM2 RING domain)` — result for “lacZ reporter activity”: 0.
`B3 (ARIH1 RING domain)`: “lacZ reporter activity” 0.
Under “lacZ reporter activity”, `B4 (SHPRH RING domain)` is recorded as 0.
`VPADASPDSKCPICLDRFDNVSYLDRCLHKFCFRCVQEWSKNKAECPLCKQPFDSIFHSV (TOPORS RING domain (UniProt Q9NS56))`: “lacZ reporter activity” 9550.
For `B5 (UBE4B RING domain)`, “lacZ reporter activity” read 0.
Under “lacZ reporter activity”, `AAQLLEEKLTCAICLGLYQDPVTLPCGHNFCGACIRDWWDRCGKACPECREPFPDGAELR (TRIM65 RING domain (UniProt Q6PJ69))` is recorded as 2430.
Under “lacZ reporter activity”, `EDVLSKDAGECAICLEELQQGDTIARLPCLCIYHKGCIDEWFEVNRSCPEHPSD (ZNRF2 RING domain (UniProt Q8NHG8))` is recorded as 0.

Study 3
Target: RING finger protein unkempt homolog, zinc fingers 1-6, GST-SBP tag (UNK, Homo sapiens, UniProt Q9C0B0, residues 30-357)
Sequence of UniProt Q9C0B0 (30-357, looked up): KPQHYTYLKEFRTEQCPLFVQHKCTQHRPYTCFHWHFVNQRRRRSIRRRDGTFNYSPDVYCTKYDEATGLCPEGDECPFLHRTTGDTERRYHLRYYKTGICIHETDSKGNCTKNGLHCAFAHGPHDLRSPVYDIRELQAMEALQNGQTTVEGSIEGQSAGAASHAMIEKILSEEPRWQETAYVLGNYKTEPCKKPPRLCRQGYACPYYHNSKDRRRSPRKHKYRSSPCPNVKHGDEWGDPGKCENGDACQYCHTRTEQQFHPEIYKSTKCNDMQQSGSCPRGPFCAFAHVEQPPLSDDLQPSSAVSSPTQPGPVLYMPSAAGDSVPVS
Method: RNA Bind-n-Seq
Molecule type: RNA
Matrix: in vitro
Tested at: not given
Setting: RNA with constant flanks, human-mouse chimeric sites, ends assumed
Relative to: input RNA pool
Direction: higher = stronger binding
Constant ends, left off below: GGGAGUUCUACAGUCCGACGAUC … CAACAGAGGAUUGAGCAUCA
`AUCAAAUACUUUGGGGACAUCAUUAGUGUGGGACAGAGAUUGUUGCAAGGAGCUCGGAUCUUAGGGAUUCCAGUUAUCAUAACGGAACAAUACCCCAAAGGACUUGGCAGCACCGUUCAA` gave a bound/input enrichment of 0.216 ratio.
With `AUAUUUCAUAUUGCAAAGAUGUUUACAAGUAUUUUAAUUUAAGUUCAGUGAACUUUUUUGUAGCUGGGUUAAAUCUUUUUAUUUUUAUAUGGCCUUAAUGGCAAAGACACUGUAUUAUUU` the bound/input enrichment was 1.68 ratio.
The bound/input enrichment of `AUAGAUGAAAUUGAUGUGGACCAGGAAGGAAUUGCUGAAAUGAUGCUGGAUGAAAAUGCUAUUGCUCAGGUCCCACGCCCUGGAACGUCUUUGAAGCUCCCUGGCACUAACCAAACAGGA` is reported as 0.23 ratio.
`AGUACUGACUCAGGCGGAUUUUGCAACACCAAGCUCACAGCAGCAGCAUCUUAGUCACAGUAGGGUAGUUUUGGGGCAAUAUUGCCAGGGUUUUAUUCACAUGCAGGUUUGGAAAAUGUA` gave a bound/input enrichment of 8.3 ratio.
For `UAAGUCCUGUGCCAGCACUUCGCUCAUAAAGUUUUAAAUUCUGGACCAAUAGUGUUUGUUUCCUGAUUAUUGUAUCCAAUACUUUGCCUAGUAUGUAACUCAUGCUUCUGGAUAAAUAAA`, the bound/input enrichment was 1.49 ratio.
`UUAAUCCCCUUUACUGCUCCCCCACUUCUCAUGGUAAUGACAAAAACUUAUAUCCCCGUCCUAGCUUUCACUCAGAUGGCUUAUGGAGCCGGUUUCCUAGCUUUCUUGGGUGGGAUCAGA` has a bound/input enrichment of 0.277 ratio.
`GUGCCCUCCUUCUCGCUGCGGAGCCCGAGCUGGGAACCAUUCCGGGACUGGUACCCUGCACACAGCCGCCUCUUCGACCAGGCCUUCGGGGUGCCCCGGUUGCCCGAUGAGUGGUCGCAG` has a bound/input enrichment of 0.0842 ratio.
`UUCAAAGGCUGUGUUAUCUGUGUCAUUUCAUAAGUAAAACUGCAUCCGGGAAAUUCUGUUCUUUUGUUUAAUUUUCCCCCAAAUGAAGCCAAAGUGUGUGUUGAAGAACUGAGAAAAAAU` has a bound/input enrichment of 0.159 ratio.

Study 4
Target: ABI1, truncated, D143A, DHFR fusion (Arabidopsis thaliana)
Method: DHFR PCA, deep sequencing
Matrix: yeast
Setting: methotrexate growth selection, single substitutions
Together with: (+)-ABA 0.11 µM
Relative to: wild-type fitted maximum
Direction: higher = stronger binding
Starting sequence: PYL1, truncated, DHFR fusion (Arabidopsis thaliana); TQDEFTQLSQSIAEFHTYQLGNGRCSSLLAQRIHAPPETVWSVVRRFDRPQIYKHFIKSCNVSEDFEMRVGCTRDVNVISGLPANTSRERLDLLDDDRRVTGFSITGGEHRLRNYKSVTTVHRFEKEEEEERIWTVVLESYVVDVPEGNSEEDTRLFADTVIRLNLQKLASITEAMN; partner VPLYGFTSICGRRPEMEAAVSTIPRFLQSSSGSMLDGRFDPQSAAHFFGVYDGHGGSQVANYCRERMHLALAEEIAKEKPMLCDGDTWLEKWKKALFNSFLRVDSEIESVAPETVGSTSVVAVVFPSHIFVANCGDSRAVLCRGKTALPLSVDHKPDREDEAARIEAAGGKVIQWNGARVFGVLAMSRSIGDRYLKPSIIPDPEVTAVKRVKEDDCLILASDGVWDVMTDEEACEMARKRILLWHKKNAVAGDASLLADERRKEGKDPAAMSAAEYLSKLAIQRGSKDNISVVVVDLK
`V100Y` — result for “relative binding score”: -9.94%.
`S87A` — result for “relative binding score”: 12.8%.
For `Q51E`, “relative binding score” read 22.5%.
Under “relative binding score”, `I12G` is recorded as -3.78%.
Under “relative binding score”, `A84V` is recorded as 29.2%.
`W41P`: “relative binding score” -3.42%.
`E128C`: “relative binding score” 36.5%.
`H16T` — result for “relative binding score”: 3.11%.
Under “relative binding score”, `E128V` is recorded as 16.3%.
`V143Q` — result for “relative binding score”: -2.17%.
For `I33H`, “relative binding score” read 5.38%.
Under “relative binding score”, `V76I` is recorded as 54.7%.
Under “relative binding score”, `Q31V` is recorded as 5.65%.
Under “relative binding score”, `E131Q` is recorded as 49%.
Under “relative binding score”, `Q10Y` is recorded as 9.5%.
Under “relative binding score”, `Y115A` is recorded as -1.74%.
`E109Y`: “relative binding score” 4.54%.
For `L138T`, “relative binding score” read -3.08%.
`F157H` — result for “relative binding score”: 11.1%.
For `S80T`, “relative binding score” read 41.2%.
Under “relative binding score”, `P36N` is recorded as 14.8%.
`G21Q`: “relative binding score” 36.5%.

Some of these lines once more (study 2):
For `B1 (RNF10 RING domain)`, “lacZ reporter activity” read 0.
`B2 (TRIM2 RING domain)` — result for “lacZ reporter activity”: 0.
`B3 (ARIH1 RING domain)`: “lacZ reporter activity” 0.
Under “lacZ reporter activity”, `B4 (SHPRH RING domain)` is recorded as 0.
`VPADASPDSKCPICLDRFDNVSYLDRCLHKFCFRCVQEWSKNKAECPLCKQPFDSIFHSV (TOPORS RING domain (UniProt Q9NS56))`: “lacZ reporter activity” 9550.
For `B5 (UBE4B RING domain)`, “lacZ reporter activity” read 0.
Under “lacZ reporter activity”, `AAQLLEEKLTCAICLGLYQDPVTLPCGHNFCGACIRDWWDRCGKACPECREPFPDGAELR (TRIM65 RING domain (UniProt Q6PJ69))` is recorded as 2430.
Under “lacZ reporter activity”, `EDVLSKDAGECAICLEELQQGDTIARLPCLCIYHKGCIDEWFEVNRSCPEHPSD (ZNRF2 RING domain (UniProt Q8NHG8))` is recorded as 0.
